Published values collected from several papers.
Compare with care: the assays were run in different laboratories. Numbers after ± are the reported error.
14-3-3 protein epsilon: 14-3-3 protein epsilon (Homo sapiens, UniProt P62258)
Chain of UniProt P62258 (whole entry, looked up): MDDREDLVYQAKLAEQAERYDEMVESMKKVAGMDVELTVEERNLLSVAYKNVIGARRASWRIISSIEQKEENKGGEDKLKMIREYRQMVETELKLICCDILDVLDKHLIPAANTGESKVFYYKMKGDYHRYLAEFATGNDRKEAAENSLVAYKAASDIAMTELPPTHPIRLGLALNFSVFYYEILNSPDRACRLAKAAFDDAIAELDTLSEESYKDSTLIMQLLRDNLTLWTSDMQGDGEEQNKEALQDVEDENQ
Chymotrypsin-C S216A: Chymotrypsin-C (Homo sapiens, UniProt Q99895, S216A)
Chain of UniProt Q99895 (whole entry, unmodified, looked up): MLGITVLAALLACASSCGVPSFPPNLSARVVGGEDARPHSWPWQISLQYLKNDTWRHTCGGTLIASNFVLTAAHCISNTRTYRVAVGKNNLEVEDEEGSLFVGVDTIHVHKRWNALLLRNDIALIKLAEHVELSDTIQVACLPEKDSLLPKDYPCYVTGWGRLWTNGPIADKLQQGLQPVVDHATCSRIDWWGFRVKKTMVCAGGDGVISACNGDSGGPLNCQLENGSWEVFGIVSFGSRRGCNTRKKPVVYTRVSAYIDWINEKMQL
Chain of UniProt Q9WVQ1 (whole entry, looked up): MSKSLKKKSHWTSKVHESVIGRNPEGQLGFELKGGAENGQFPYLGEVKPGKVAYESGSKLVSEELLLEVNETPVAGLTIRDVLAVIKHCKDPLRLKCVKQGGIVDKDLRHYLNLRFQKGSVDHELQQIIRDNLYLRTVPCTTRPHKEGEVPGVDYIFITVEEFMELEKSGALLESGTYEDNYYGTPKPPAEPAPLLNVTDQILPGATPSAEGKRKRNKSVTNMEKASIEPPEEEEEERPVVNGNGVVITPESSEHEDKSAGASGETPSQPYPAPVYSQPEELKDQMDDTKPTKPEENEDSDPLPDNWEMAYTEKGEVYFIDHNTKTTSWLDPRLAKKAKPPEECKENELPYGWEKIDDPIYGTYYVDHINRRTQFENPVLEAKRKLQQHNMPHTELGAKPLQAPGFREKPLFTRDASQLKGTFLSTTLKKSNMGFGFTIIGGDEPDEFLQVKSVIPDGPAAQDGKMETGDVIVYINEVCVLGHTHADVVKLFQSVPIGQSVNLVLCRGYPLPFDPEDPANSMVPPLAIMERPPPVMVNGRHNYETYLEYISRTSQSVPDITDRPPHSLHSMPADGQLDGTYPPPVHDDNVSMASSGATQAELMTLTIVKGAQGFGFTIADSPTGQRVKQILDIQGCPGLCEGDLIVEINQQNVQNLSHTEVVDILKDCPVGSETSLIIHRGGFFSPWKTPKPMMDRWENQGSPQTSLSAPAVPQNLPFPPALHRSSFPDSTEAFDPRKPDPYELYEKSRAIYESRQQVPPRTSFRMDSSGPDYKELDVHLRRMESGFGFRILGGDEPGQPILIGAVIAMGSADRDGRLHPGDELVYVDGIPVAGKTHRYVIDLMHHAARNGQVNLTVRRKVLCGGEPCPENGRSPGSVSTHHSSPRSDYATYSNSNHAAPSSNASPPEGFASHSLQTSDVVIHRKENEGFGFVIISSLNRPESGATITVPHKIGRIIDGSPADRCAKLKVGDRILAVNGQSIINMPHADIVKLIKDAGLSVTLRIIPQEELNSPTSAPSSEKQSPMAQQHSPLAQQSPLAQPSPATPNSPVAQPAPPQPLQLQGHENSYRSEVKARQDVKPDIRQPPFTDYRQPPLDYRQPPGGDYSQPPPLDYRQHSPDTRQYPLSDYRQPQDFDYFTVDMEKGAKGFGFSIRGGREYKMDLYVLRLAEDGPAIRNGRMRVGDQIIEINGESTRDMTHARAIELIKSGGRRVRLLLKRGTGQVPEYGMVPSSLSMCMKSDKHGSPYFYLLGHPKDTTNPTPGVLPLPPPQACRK
Chain of UniProt P08069 (whole entry, looked up): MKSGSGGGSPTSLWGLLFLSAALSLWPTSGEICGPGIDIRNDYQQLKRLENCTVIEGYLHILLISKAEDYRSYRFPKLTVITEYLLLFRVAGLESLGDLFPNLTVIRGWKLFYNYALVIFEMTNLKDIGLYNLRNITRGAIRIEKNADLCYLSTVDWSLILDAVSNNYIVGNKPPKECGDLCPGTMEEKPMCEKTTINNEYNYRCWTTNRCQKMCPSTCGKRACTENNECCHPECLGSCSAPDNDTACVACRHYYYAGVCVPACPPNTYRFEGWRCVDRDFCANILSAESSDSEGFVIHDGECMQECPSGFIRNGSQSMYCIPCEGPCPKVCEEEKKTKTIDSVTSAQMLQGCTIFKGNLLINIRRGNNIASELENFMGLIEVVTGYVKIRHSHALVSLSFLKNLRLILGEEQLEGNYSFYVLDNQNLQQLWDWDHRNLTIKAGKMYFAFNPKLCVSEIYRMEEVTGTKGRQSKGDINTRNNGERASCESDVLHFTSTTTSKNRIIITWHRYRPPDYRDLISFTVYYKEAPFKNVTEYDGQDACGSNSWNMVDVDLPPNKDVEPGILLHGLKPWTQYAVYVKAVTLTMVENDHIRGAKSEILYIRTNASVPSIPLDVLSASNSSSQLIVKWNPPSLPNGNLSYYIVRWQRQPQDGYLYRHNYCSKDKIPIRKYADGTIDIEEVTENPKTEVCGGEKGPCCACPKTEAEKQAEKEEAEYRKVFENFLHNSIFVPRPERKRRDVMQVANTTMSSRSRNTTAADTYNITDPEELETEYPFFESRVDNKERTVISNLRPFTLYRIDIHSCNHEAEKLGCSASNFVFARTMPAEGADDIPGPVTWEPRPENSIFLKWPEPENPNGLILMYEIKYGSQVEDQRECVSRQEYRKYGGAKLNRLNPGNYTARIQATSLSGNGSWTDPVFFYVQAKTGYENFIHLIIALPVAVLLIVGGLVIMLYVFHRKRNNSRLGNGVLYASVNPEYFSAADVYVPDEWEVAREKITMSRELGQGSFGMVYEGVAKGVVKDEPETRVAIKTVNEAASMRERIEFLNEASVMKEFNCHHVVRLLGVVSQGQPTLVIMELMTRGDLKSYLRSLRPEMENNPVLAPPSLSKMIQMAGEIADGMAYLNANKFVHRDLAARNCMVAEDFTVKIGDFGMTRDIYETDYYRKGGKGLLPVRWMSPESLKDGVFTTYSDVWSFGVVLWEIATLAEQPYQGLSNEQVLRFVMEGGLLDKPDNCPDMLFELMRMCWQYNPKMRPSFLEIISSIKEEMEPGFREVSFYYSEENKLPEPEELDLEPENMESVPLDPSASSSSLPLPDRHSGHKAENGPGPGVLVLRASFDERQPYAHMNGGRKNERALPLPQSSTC
Chain of UniProt P33913 (whole entry, unmodified, looked up): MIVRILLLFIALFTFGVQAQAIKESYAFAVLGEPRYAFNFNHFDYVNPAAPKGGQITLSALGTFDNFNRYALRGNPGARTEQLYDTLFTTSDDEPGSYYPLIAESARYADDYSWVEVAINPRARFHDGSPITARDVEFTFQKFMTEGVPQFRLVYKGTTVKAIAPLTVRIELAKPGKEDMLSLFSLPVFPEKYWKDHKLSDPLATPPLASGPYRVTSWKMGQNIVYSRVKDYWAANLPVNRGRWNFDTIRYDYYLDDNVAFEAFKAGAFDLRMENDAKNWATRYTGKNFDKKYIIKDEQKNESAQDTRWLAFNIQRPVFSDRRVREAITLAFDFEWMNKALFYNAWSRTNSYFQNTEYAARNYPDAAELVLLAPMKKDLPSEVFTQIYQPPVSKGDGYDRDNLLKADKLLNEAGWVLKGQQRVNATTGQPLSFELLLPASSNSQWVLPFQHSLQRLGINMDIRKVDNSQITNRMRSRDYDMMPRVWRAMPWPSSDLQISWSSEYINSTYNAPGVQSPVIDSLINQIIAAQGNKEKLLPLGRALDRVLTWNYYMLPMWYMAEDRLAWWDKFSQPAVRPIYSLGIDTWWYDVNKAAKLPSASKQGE
Chain of UniProt Q07820 (whole entry, looked up): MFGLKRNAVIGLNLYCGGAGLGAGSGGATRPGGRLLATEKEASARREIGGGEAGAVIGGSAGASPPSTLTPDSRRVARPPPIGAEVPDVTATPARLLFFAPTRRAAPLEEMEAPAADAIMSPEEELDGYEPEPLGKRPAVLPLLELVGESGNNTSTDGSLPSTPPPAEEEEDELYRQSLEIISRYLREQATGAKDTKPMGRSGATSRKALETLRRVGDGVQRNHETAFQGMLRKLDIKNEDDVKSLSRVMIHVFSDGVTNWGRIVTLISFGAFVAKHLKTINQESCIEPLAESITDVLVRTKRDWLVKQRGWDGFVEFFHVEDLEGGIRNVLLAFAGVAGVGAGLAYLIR
Chain of UniProt Q12884 (whole entry, looked up): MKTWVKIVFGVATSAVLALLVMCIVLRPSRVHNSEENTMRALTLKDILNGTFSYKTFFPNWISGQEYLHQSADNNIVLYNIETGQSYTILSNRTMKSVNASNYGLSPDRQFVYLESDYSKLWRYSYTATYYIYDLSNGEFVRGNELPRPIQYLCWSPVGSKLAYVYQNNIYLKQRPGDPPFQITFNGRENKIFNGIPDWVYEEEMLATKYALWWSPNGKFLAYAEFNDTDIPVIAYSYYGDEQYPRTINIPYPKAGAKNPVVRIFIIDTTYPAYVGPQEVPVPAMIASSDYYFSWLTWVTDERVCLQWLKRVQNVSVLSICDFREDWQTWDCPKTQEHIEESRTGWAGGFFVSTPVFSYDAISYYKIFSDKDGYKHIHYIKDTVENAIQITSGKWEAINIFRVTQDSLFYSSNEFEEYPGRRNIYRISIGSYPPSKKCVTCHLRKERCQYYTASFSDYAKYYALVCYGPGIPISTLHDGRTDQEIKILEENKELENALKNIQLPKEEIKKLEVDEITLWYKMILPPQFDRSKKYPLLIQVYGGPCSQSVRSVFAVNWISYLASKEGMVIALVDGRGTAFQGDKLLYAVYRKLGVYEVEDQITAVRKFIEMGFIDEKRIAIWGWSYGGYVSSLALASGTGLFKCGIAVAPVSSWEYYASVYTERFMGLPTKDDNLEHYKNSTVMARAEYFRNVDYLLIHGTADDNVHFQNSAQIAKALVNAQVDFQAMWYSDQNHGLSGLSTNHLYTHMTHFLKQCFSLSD

SMILES	target	assay	system	setting	Kd [nM]
C#CC[C@H](NC(=O)CNC(=O)[C@H](CO)NC(=O)[C@@H]1CCCCNC(=O)CCCC(=O)N[C@@H](CCSC)C(=O)N[C@@H](Cc2c[nH]c3ccccc23)C(=O)N2CCC[C@H]2C(=O)N[C@@H](Cc2c[nH]cn2)C(=O)N[C@@H](CCCNC(=N)N)C(=O)N[C@@H](C(C)C)C(=O)N[C@@H]([C@@H](C)O)C(=O)N[C@@H](C)C(=O)N(C)[C@@H](C)C(=O)N1)C(=O)O	Microtubule-associated protein 1 light chain 3 alpha (Homo sapiens, UniProt Q9H492)	fluorescence polarization		added: fluorescein-labelled peptide	116 ± 14
CC(=O)NCC(=O)N[C@@H](Cc1ccccc1)C(=O)N[C@@H](Cc1ccccc1)C(=O)N[C@@H](Cc1ccc(O)cc1)C(=O)O	IGF1R (Homo sapiens, UniProt P08069)	binding, MST			1030
CC(=O)N[C@@H](CCCNC(=N)N)C(=O)N[C@H](C(=O)N[C@@H](CCCCN)C(=O)N[C@@H](CO)C(=O)N[C@@H](CCCNC(=N)N)C(=O)N[C@H](C(=O)N[C@@H](Cc1c[nH]c2ccccc12)C(=O)N[C@@H](C)C(=O)N[C@H](C(N)=O)C(C)C)[C@@H](C)OP(=O)(O)O)[C@@H](C)O	14-3-3 protein epsilon	binding, SPR		pH 7.4	212
CSCC[C@H](NC=O)C(=O)N[C@@H](CCCNC(=N)N)C(=O)N[C@H](C(=O)NCC(=O)N[C@@H](CC(N)=O)C(=O)N[C@@H](C)C(=O)N[C@@H](CC(N)=O)C(=O)NCC(=O)NCC(=O)N[C@@H](CCCCNC(=S)Nc1ccc2c(c1)C(=O)OC21c2ccc(O)cc2Oc2cc(O)ccc21)C(=O)O)[C@@H](C)O	Uncharacterized protein YejA (yejA, Escherichia coli, UniProt P33913, R69A)	binding, fluorescence polarisation		YejA variant R51A	13100 ± 570
CC(C)C[C@@H]1NC(=O)[C@H](CC(C)C)NC(=O)[C@H](CC(C)C)NC(=O)[C@H](Cc2c[nH]c3ccccc23)NC(=O)[C@@H]2CSSC[C@@H]3NC(=O)[C@H]([C@@H](C)O)NC(=O)[C@H](CC(N)=O)NC(=O)[C@H](CSSC[C@@H](C(=O)N[C@@H](CC(=O)O)C(=O)N[C@@H](CCC(N)=O)C(=O)O)NC1=O)NC(=O)[C@H](CCCCN)NC(=O)[C@H](CC(=O)O)NC(=O)[C@H](CCCCN)NC(=O)[C@H](Cc1ccccc1)NC(=O)[C@H]([C@@H](C)O)NC(=O)[C@H]([C@@H](C)O)NC(=O)CNC(=O)[C@@H]1CCCN1C(=O)[C@H](CCC(=O)O)NC(=O)[C@@H](NC(=O)[C@@H](NC(=O)[C@@H](NC(=O)[C@H](CCC(=O)O)NC(=O)[C@H](CO)NC(=O)CN)C(C)C)[C@@H](C)O)CSSC[C@H](NC(=O)[C@H](CCCNC(=N)N)NC3=O)C(=O)NCC(=O)N[C@@H](CO)C(=O)N[C@@H](CC(=O)O)C(=O)NCC(=O)N[C@@H](CCCCN)C(=O)N[C@@H](CO)C(=O)N[C@@H](C)C(=O)N[C@@H](Cc1c[nH]c3ccccc13)C(=O)N2	Chymotrypsin-C S216A	competitive fluorescence polarization		24 h, pH 8.0, added: FITC-labelled tracer	24 ± 3.34
C[C@H](NC(=O)[C@H](Cc1c[nH]c2ccccc12)NC(=O)[C@H](CO)NC(=O)[C@H](Cc1ccc(O)cc1)NC(=O)[C@@H](N)CC(=O)O)C(=O)N[C@@H](CCC(=O)O)C(=O)N[C@@H](CCC(=O)O)C(=O)N[C@@H](CCC(=O)O)C(=O)N[C@@H](CC(=O)O)C(=O)N[C@@H](CCC(=O)O)C(=O)O	Histone H2B 1.1/Histone H2A type 1 (Xenopus laevis, UniProt P02281+P06897)	binding, intrinsic tryptophan fluorescence		pH 7.6, 20 °C, added: H2A/H2B	22600 ± 4400
CC(=O)N[C@@H](CCCNC(=N)N)C(=O)N[C@H](C(=O)N[C@@H](CCCCN)C(=O)N[C@@H](CO)C(=O)N[C@@H](CCCNC(=N)N)C(=O)N[C@H](C(=O)N[C@@H](Cc1c[nH]c2ccccc12)C(=O)N[C@@H](C)C(=O)N[C@@H](Cc1ccccc1)C(N)=O)[C@@H](C)OP(=O)(O)O)[C@@H](C)O	14-3-3 protein epsilon	binding, SPR		pH 7.4	22
CSCC[C@H](NC(=O)[C@H](C)NC(=O)[C@H](CCCCN)NC(=O)[C@H](CC(C)C)NC(=O)[C@H](Cc1ccc(O)cc1)NC(=O)[C@H](COP(=O)(O)O)NC(=O)[C@H](CCC(=O)O)NC(=O)[C@H](CCCNC(=N)N)NC(=O)[C@H](CCCNC(=N)N)NC(=O)[C@H](C)NC(=O)[C@H](C)N)C(=O)N[C@@H](CCC(N)=O)C(=O)N1CCC[C@H]1C(=O)N[C@@H](CO)C(=O)N[C@@H](CC(C)C)C(=O)O	Membrane-associated guanylate kinase, WW and PDZ domain-containing protein 2 (Magi2, Mus musculus, UniProt Q9WVQ1)	ITC		pH 8.0, 25 °C, added: tandem peptide	40
CSCC[C@@H]1NC(=O)[C@H](CC(C)C)NC(=O)[C@H](Cc2c[nH]c3ccccc23)NC(=O)[C@@H]2CSSC[C@@H]3NC(=O)[C@H]([C@@H](C)O)NC(=O)[C@H](CC(N)=O)NC(=O)[C@H](CSSC[C@@H](C(=O)N[C@@H](CC(=O)O)C(=O)N[C@@H](CCC(N)=O)C(=O)O)NC(=O)[C@H](CC(C)C)NC1=O)NC(=O)[C@H](CCCCN)NC(=O)[C@H](CC(=O)O)NC(=O)[C@H](CCCCN)NC(=O)[C@H](Cc1ccccc1)NC(=O)[C@H]([C@@H](C)O)NC(=O)[C@H]([C@@H](C)O)NC(=O)CNC(=O)[C@@H]1CCCN1C(=O)[C@H](CCC(=O)O)NC(=O)[C@@H](NC(=O)[C@@H](NC(=O)[C@@H](NC(=O)[C@H](CCC(=O)O)NC(=O)[C@H](CO)NC(=O)CN)C(C)C)[C@@H](C)O)CSSC[C@H](NC(=O)[C@H](CCCNC(=N)N)NC3=O)C(=O)NCC(=O)N[C@@H](CO)C(=O)N[C@@H](CC(=O)O)C(=O)NCC(=O)N[C@@H](CCCCN)C(=O)N[C@@H](CO)C(=O)N[C@@H](C)C(=O)N[C@@H](C)C(=O)N2	Chymotrypsin-C (Homo sapiens, UniProt Q99895)	cell-free assay, FP		pH 8	9.71
CC[C@H](C)[C@H](NC(=O)[C@H](CCCNC(=N)N)NC(=O)[C@H](CCCNC(=N)N)NC(=O)[C@H](CC(C)C)NC(=O)[C@H](CCC(=O)O)NC(=O)[C@H](CCC(N)=O)NC(=O)[C@H](C)NC(=O)[C@@H](NC(=O)[C@H](CNC(=O)CCl)NC(=O)[C@H](CCCNC(=N)N)NC(=O)[C@H](CCCNC(=N)N)NC(=O)[C@@H]1CCCN1C(=O)[C@H](CCCNC(=N)N)NC(=O)[C@H](CCCNC(=N)N)NC(=O)[C@@H]1CCCN1C(=O)[C@H](CCCNC(=N)N)NC(=O)[C@H](CCCNC(=N)N)NC(=O)[C@@H]1CCCN1C(=O)[C@H](CCCNC(=N)N)NC(=O)[C@H](CCCNC(=N)N)NC(=O)[C@@H]1CCCN1C(=O)[C@H](CCCNC(=N)N)NC(=O)[C@H](CCCNC(=N)N)NC(=O)[C@@H]1CCCN1C(C)=O)[C@@H](C)CC)C(=O)NCC(=O)N[C@@H](CC(=O)O)C(=O)N[C@@H](CCC(=O)O)C(=O)N[C@@H](Cc1ccccc1)C(=O)N[C@@H](CC(N)=O)C(=O)N[C@@H](C)C(=O)N[C@@H](Cc1ccc(O)cc1)C(=O)N[C@@H](Cc1ccc(O)cc1)C(=O)N[C@@H](C)C(=O)N[C@@H](CCCNC(=N)N)C(=O)N[C@@H](CCCNC(=N)N)C(N)=O	MCL1 (Homo sapiens, UniProt Q07820)	binding, ITC			11.6
CC(C)C[C@H](NC(=O)[C@@H]1CCCN1C(=O)[C@H](CCCCN)NC(=O)[C@@H](N)CO)C(=O)N1CCC[C@H]1C(=O)N[C@@H](CCC(=O)O)C(=O)N[C@H](C(=O)N[C@H](C(=O)N[C@@H](CC(=O)O)C(=O)N[C@@H](CCC(=O)O)C(=O)N[C@@H](Cc1ccc(O)cc1)C(=O)NCC(=O)NCCOCCOCCOCCOCCC(=O)N[C@@H](CCCCNC(=O)CC[C@H](C(=O)O)N1CCN(CC(=O)O)CCN(CC(=O)O)CC1)C(=O)N1CCN(CCCN(C)c2ccc3nccc(C(=O)NCC(=O)N4CC(F)(F)C[C@H]4C#N)c3c2)CC1)[C@@H](C)O)C(C)C [copper-64 labelled]	FAP (Homo sapiens, UniProt Q12884)	binding, 64Cu radioligand saturation	HT-1080 expressing hFAP	1 h, 37 °C, added: FAPI-04 1 µM for nonspecific	2.07
CSCC[C@@H]1NC(=O)[C@H](C)NC(=O)[C@H](CO)NC(=O)[C@H](CCCCN)NC(=O)CNC(=O)[C@H](CC(=O)O)NC(=O)[C@H](CO)NC(=O)CNC(=O)[C@@H]2CSSC[C@H](NC(=O)[C@@H](NC(=O)[C@@H](NC(=O)[C@H](CCC(=O)O)NC(=O)[C@H](CO)NC(=O)CN)C(C)C)[C@@H](C)O)C(=O)N[C@@H](CCC(=O)O)C(=O)N3CCC[C@H]3C(=O)NCC(=O)N[C@@H]([C@@H](C)O)C(=O)N[C@@H]([C@@H](C)O)C(=O)N[C@@H](Cc3ccccc3)C(=O)N[C@@H](CCCCN)C(=O)N[C@@H](CC(=O)O)C(=O)N[C@@H](CCCCN)C(=O)N[C@H]3CSSC[C@@H](C(=O)N[C@@H](Cc4c[nH]c5ccccc45)C(=O)N[C@@H](CCC(N)=O)C(=O)O)NC(=O)[C@H](CC(C)C)NC(=O)[C@H](CCSC)NC(=O)[C@H](CC(C)C)NC(=O)[C@H](CO)NC(=O)[C@H](CSSC[C@H](NC(=O)[C@H]([C@@H](C)O)NC(=O)[C@H](CC(N)=O)NC3=O)C(=O)N[C@@H](CCCNC(=N)N)C(=O)N2)NC1=O	Chymotrypsin-C S216A	competitive fluorescence polarization		24 h, pH 8.0, added: FITC-labelled tracer	0.24 ± 0.03
O=C(N[C@@H]1c2ccccc2C[C@H]1N1CCCC1)c1ccc(-c2ccnc3[nH]ccc23)nc1	Non-receptor tyrosine-protein kinase TYK2, JH1 (TYK2, Homo sapiens, UniProt P29597)	binding, competition with immobilised ligand			690
CC(C)C[C@H](NC(=O)[C@H](CO)NC(=O)[C@@H]1CCCN1C(=O)[C@H](CCC(N)=O)NC(=O)[C@@H](NC(=O)[C@H](C)NC(=O)[C@H](CCCCN)NC(=O)[C@H](CC(C)C)NC(=O)[C@H](Cc1ccc(O)cc1)NC(=O)[C@H](COP(=O)(O)O)NC(=O)[C@H](CCC(=O)O)NC(=O)[C@H](CCCNC(=N)N)NC(=O)[C@H](CCCNC(=N)N)NC(=O)[C@H](C)NC(=O)[C@H](C)N)[C@@H](C)O)C(=O)O	Membrane-associated guanylate kinase, WW and PDZ domain-containing protein 1 (Magi1, Mus musculus, UniProt Q6RHR9)	isothermal titration calorimetry	mouse	pH 8.0, 25 °C	360 ± 20

Excerpt of the above:
SMILES	target	assay	system	setting	Kd [nM]
CC(C)C[C@H](NC(=O)[C@H](CO)NC(=O)[C@@H]1CCCN1C(=O)[C@H](CCC(N)=O)NC(=O)[C@@H](NC(=O)[C@H](C)NC(=O)[C@H](CCCCN)NC(=O)[C@H](CC(C)C)NC(=O)[C@H](Cc1ccc(O)cc1)NC(=O)[C@H](COP(=O)(O)O)NC(=O)[C@H](CCC(=O)O)NC(=O)[C@H](CCCNC(=N)N)NC(=O)[C@H](CCCNC(=N)N)NC(=O)[C@H](C)NC(=O)[C@H](C)N)[C@@H](C)O)C(=O)O	Membrane-associated guanylate kinase, WW and PDZ domain-containing protein 1 (Magi1, Mus musculus, UniProt Q6RHR9)	isothermal titration calorimetry	mouse	pH 8.0, 25 °C	360 ± 20
